Measurements gathered from unrelated publications.
Each line is one published result; not all experiments were run side by side.
OPRM1: Mu-type opioid receptor (OPRM1, Homo sapiens, UniProt P35372)
Sequence of UniProt P35372 (whole entry, unmodified, looked up): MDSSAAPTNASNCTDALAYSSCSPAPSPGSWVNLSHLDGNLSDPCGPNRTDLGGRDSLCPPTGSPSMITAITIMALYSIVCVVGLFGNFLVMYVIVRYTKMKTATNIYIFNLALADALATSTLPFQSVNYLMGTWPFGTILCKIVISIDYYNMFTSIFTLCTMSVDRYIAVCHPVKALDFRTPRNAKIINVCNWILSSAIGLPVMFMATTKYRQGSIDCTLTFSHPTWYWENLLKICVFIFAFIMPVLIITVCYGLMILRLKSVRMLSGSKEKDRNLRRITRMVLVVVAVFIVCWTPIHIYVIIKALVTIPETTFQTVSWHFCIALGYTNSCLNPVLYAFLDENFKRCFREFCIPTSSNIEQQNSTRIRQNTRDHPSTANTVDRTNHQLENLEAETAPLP

For `CC(C)[C@H]1CC[C@H](N2CC[C@@](C)(c3cccc(O)c3)[C@@H](C)C2)CC1`, the efficacy was 0% (OPRM1; agonist).
`Cc1cc(O)cc(C)c1C[C@H](N)C(=O)N[C@@H]1CSSC[C@@H](NC(=O)[C@@H](N)Cc2c(C)cc(O)cc2C)C(=O)NCC(=O)N[C@@H](Cc2ccccc2)C(=O)NNC(=O)[C@H](Cc2ccccc2)NC(=O)CNC1=O` gave an Emax of 78% (OPRM1; GTPγS binding, agonist, radiometric; cell membranes).
`Cc1cc(O)cc(C)c1C[C@H](N)C(=O)N1Cc2ccccc2C[C@H]1C(=O)NCC(=O)NCc1ccccc1` has an Emax of 84% (OPRM1; GTPγS binding, agonist, radiometric; cell membranes).
The Emax of `C[C@@H](Cc1ccsc1)NC(=O)NC[C@H](Cc1ccc(O)cc1)N(C)C` is reported as 67 to 89% (Mu-type opioid receptor, with Gi/o/z proteins (OPRM1, Homo sapiens, UniProt P35372); receptor activation, agonist).
For `CCOC(=O)C1C(OC(c2ccc(Cl)cc2)c2ccc(Cl)cc2)CC2CCC1N2C` (single isomer, unassigned), displacement read “inactive” (OPRM1; binding; 10000 nM, with: [3H]diprenorphine).
`C[C@@H](NC(=O)[C@@H](N)Cc1ccc(O)cc1)C(=O)NCC(=O)N(C)[C@@H](Cc1ccccc1)C(=O)NCCO` gave an Emax of 130% (OPRM1; GTPγS binding, agonist, radiometric; cell membranes).
For `COC(=O)C1C(OC(c2ccc(Cl)cc2)c2ccc(Cl)cc2)CC2CCC1N2C` (single isomer, unassigned), displacement read “inactive” (OPRM1; binding; 10000 nM, with: [3H]diprenorphine).
For `C[C@@H](O)[C@H](NC(=O)[C@H]1NC(=O)[C@H]([C@@H](C)O)NC(=O)[C@H](CCCN)NC(=O)[C@@H](Cc2c[nH]c3ccccc23)NC(=O)[C@H](Cc2ccc(O)cc2)NC(=O)[C@@H](NC(=O)[C@H](N)Cc2ccccc2)CSSC1(C)C)C(N)=O`, “binding affinity increase” read no less than 10 fold (Mu-type opioid receptor (OPRM1, Homo sapiens, UniProt P35372, C348A/C353A); concentration not given; reference: OPRM1 over human MOR).

For quick reference, copied from above:
For `COC(=O)C1C(OC(c2ccc(Cl)cc2)c2ccc(Cl)cc2)CC2CCC1N2C` (single isomer, unassigned), displacement read “inactive” (OPRM1; binding; 10000 nM, with: [3H]diprenorphine).
